Assay results collected from several papers.
Each numbered part is a random draw from the data of one study; scales do not carry over between parts.
Chain of UniProt Q9C0B0 (30-357, looked up): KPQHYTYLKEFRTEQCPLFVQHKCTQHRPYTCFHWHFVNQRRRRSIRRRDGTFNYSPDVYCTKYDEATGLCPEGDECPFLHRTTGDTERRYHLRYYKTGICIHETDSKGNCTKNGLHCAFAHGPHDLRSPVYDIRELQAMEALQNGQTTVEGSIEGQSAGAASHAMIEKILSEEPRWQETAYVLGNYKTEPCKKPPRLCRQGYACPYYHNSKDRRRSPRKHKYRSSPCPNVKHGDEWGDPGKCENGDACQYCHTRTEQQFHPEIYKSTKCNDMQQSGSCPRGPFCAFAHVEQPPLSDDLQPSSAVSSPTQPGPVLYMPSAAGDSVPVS

Series 1 — technique: protein binding microarray; molecule type: double-stranded DNA, one strand shown; matrix: in vitro; tested at: not given; relative to: not given; direction: higher = stronger binding
Target: Histone acetyltransferase KAT6A, winged helix 1, GST fusion (KAT6A, Homo sapiens, UniProt Q92794, residues 1-85)
Notes: 8-mer, flanks averaged, mean of 2 arrays, mostly near background
Target sequence (chain): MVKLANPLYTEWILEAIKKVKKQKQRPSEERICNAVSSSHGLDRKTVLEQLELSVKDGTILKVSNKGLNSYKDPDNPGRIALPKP
`ACGTCTGC` gave an E-score of 0.0121.
For `ACCGCCCG`, the E-score was 0.421.
For `CACCACTG`, the E-score was -0.218.
The E-score of `CAGAACCG` is reported as 0.0679.
`AGCTACCT` has an E-score of -0.0131.
For `AATAACCC`, the E-score was 0.0478.
`GATATAAC` has an E-score of -0.00888.
The E-score of `AGGAATGG` is reported as -0.146.
`GTGCGCTA` gave an E-score of 0.228.
For `ACACGCGG`, the E-score was 0.329.
`CCTAAAGA` gave an E-score of -0.0526.
`CGGGCGGC` gave an E-score of 0.442.
With `CGCCTCAA` the E-score was 0.103.
With `ACTGATGC` the E-score was -0.0521.
`CCACTTGC` has an E-score of -0.182.
With `AAAAACCT` the E-score was -0.212.
For `AGTCCATG`, the E-score was -0.109.
For `CCTGTGAA`, the E-score was -0.171.
For `ACGGAGAG`, the E-score was 0.118.
For `ACTCCATG`, the E-score was -0.069.
With `AGACGTAT` the E-score was -0.094.
The E-score of `AGCAGCAA` is reported as -0.0464.
`CCGGTGGC` has an E-score of 0.211.
`CTAGTCGA` has an E-score of -0.138.
`AACCAACA` has an E-score of -0.157.

Series 2 — technique: Spec-seq; molecule type: double-stranded DNA, one strand shown; matrix: in vitro; tested at: not given; notes: whole probe, mean of replicates; relative to: not given; direction: lower = stronger binding; all sequences stand within: GAGTCGTCTCGTCAGCAC … CCGTAGAGCACTCAGGTC
Target: POU domain, class 5, transcription factor 1, POU domain (Pou5f1, Mus musculus, UniProt P20263, residues 131-289)
Chain of UniProt P20263 (131-289, looked up): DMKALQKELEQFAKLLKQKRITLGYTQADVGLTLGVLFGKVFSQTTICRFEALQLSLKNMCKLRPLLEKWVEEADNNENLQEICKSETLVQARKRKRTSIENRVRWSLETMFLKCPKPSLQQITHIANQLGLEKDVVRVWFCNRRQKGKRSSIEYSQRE
Under “relative binding energy”, `GGACTAAT` is recorded as 0.472 ln ratio.
For `TATTTAAT`, “relative binding energy” read -0.323 ln ratio.
For `TTTTTAAT`, “relative binding energy” read 0.00995 ln ratio.
For `ATCCCAAT`, “relative binding energy” read 0.415 ln ratio.
For `CGTATAAT`, “relative binding energy” read 0.447 ln ratio.
`CAATTAAT`: “relative binding energy” -0.155 ln ratio.
`ATGCTATG`: “relative binding energy” 0.412 ln ratio.
Under “relative binding energy”, `CTGTTAAT` is recorded as 0.331 ln ratio.
`ATGCGGCA` — result for “relative binding energy”: 0.403 ln ratio.
`GGGCTAAT`: “relative binding energy” 0.768 ln ratio.
Under “relative binding energy”, `ATGGCGAT` is recorded as 0.797 ln ratio.
Under “relative binding energy”, `GTCATAAT` is recorded as 0.441 ln ratio.
Under “relative binding energy”, `ATCCGAAT` is recorded as -0.114 ln ratio.
`TCAATAAT`: “relative binding energy” -0.166 ln ratio.
`ATGCCTCA` — result for “relative binding energy”: 0.68 ln ratio.
`ATGCGAAA` — result for “relative binding energy”: 0.0514 ln ratio.
`ATGCTCTT`: “relative binding energy” 0.685 ln ratio.
For `ATGCAGAT`, “relative binding energy” read -1.21 ln ratio.
Under “relative binding energy”, `ATTGTTAT` is recorded as 0.367 ln ratio.
`ATGCTAAC` — result for “relative binding energy”: 0.0512 ln ratio.
`ATGCCGCC` — result for “relative binding energy”: 1.02 ln ratio.
`ATTCGCAT`: “relative binding energy” -0.55 ln ratio.

Series 3 — technique: RNA Bind-n-Seq; molecule type: RNA; matrix: in vitro; tested at: 365 nM; relative to: no-protein control; direction: higher = stronger binding
Target: RNA binding protein fox-1 homolog 2, RRM domain, GST-SBP tag (RBFOX2, Homo sapiens, UniProt O43251-10, residues 100-194)
Notes: natural RNA segment, single round, ends assumed
Target sequence (chain): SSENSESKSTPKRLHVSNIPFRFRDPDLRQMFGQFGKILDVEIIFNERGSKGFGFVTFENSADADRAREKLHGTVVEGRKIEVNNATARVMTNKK
Under “RBNS enrichment (R)”, `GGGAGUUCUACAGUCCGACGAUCGCUUGUAUGUUACCAUACAGCUGACAUGUAUUUUUUGUCUAUUCUUUAUUAUCUUAGUAGUUUCAUGCUGUGUAUGUACCAUAACCAACCUAUUGCCUAUGAGAAACAUGUGGAAUUCUCGGGUGCCAA` is recorded as 0.811.
`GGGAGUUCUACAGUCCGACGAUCCUCCAGCGGUGGGGAAGCCGCUGAAUCCACCUGCUUCUCCUUUGCAACCGACAGCAAACAGCUUUCUCCGGCCUCAGGGCAGAAAAAGGGAAUGGCAGGGAGUAAGAGGCUGGAAUUCUCGGGUGCCAA` — result for “RBNS enrichment (R)”: 0.419.
`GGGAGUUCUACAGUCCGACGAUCAAUUCCAAUGUUAUAGUGAAGUGUAAUGAAAAACAUCUCUAGGAAUGUGCUUUAACCACUGCUGCAAAAGAGACAAGUCUGCAUUUAUUUGUGCAGGAAACCAGCCAUUUUGGAAUUCUCGGGUGCCAA`: “RBNS enrichment (R)” 0.656.
`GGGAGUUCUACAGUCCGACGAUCUACAAUCAUUUAUAAUGAAUCAAUGUUCCAGUUAGCUUUAAAAGGUAUACGGUGCUAAUUAGUAAAAUAUUGAAGGCAAUAUUUUACUGCUAGCUUGCAAAGUUAUGAGAUGGAAUUCUCGGGUGCCAA` — result for “RBNS enrichment (R)”: 0.486.
Under “RBNS enrichment (R)”, `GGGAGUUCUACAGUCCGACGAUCUGCUUCUUGCUGGGUUUUUGUACAUGUAAACAUUGUCAAGCUGUGAAAGAAAAUGGCUGGAGGUGUGCUUUGUGUGAAAGGUGAGCAAUAAAGUAUCUGUUAAGUUCUCUUGGAAUUCUCGGGUGCCAA` is recorded as 0.381.
`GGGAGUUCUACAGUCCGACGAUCAAAUUUUUAAAUCUCCAACUUGCUGUUUCCAAAAAGAAGGUGCAAUAUCAUAUAUCAUCAGUUAGCAAUAUUAGCAUUUCAAUCAGUGAUUUGAAUGUUGAUACUUUUUUUGGAAUUCUCGGGUGCCAA` — result for “RBNS enrichment (R)”: 0.721.
`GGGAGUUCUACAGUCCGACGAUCUAUAAAUUGUCUUAUAUUUCUUAACCUCUUUUAUAAAAAUUUUCCUAGAAGGUUUAUACUGCCUUCUUGCUUUAAAGCAAUUGGUCUAAAAUAUAUGUAAUCGUCUUAAUUGGAAUUCUCGGGUGCCAA` — result for “RBNS enrichment (R)”: 0.6.
`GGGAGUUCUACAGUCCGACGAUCCACCAGAUCAAAAGGCAUAAACCAGACCUGUCCCAGGCCGAUGUGGAAAUAUGUUCUUUCUAGUUGUGGGUACCCUGAUCUAGGUGGUUUGUAAUUGUGCAUUACUGACUUGGAAUUCUCGGGUGCCAA` — result for “RBNS enrichment (R)”: 0.494.
`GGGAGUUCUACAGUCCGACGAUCAACUGUUCCAAGACUGACACAAGGAUGUUUCAAACUUGCCUCUGUCUGUAGAAAAUGUUAAAAAUACCAACUCACUUGGAAGGAAAAAUAAAAAUCACAAAGGUAUAUUGUGGAAUUCUCGGGUGCCAA` — result for “RBNS enrichment (R)”: 0.341.
Under “RBNS enrichment (R)”, `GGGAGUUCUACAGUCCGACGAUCGGUGAGAGGGCUGGUAUGUCAUGUUGUUAUGAUACAGUCGAAAUUUGUCAAUGCAGUGUGAAUGUUCUACAUAAAGUGCUUUAACCCUUAACAUUUCCUGGUCAGGAAGGUGGAAUUCUCGGGUGCCAA` is recorded as 0.567.
Under “RBNS enrichment (R)”, `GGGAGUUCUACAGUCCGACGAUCAACACUUCAAAAAUUAUCUUCAAUCUCCAUUCUCAUGGUAUCUCAUUUUUACUUGGCCCCCAGCAGAUAAUUUUCACCAGUGUUCCAUAUCCUUGUUCUCCAUUCAAGCCUGGAAUUCUCGGGUGCCAA` is recorded as 0.417.
`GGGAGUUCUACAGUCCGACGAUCGCAGCAAGCGGCUACCCCCCGAUCUGCAAAAGGGCCUCUCCCUUUGUGUUCUAUACAUUGUGAAUCUUCCCGUCUGAAGAACGCCCAGCCUGCCCAGACAAAGCCCCGCCUGGAAUUCUCGGGUGCCAA`: “RBNS enrichment (R)” 0.956.

Mixed results
The bound/input enrichment of `GGGAGUUCUACAGUCCGACGAUCUGUCUGCCUCAUUCUAAAAUUUACACAGCCGACCAUUUGUCAUCCAUGCUGUCCCACAAACCGUUUUUUGUUUACGAUUUAUGACAGGUUUAUGUUACUUCUAUUUGAAUUUCUAUAUUUCAACAGAGGAUUGAGCAUCA` is reported as 0.58 ratio (RING finger protein unkempt homolog, zinc fingers 1-6, SBP tag (UNK, Homo sapiens, UniProt Q9C0B0, residues 30-357); RNA Bind-n-Seq; RNA, in vitro; 100 nM, RNA with constant flanks, ends assumed; relative to: input RNA pool, higher = stronger binding).

For quick reference, copied from above (series 3):
`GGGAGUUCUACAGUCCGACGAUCAACUGUUCCAAGACUGACACAAGGAUGUUUCAAACUUGCCUCUGUCUGUAGAAAAUGUUAAAAAUACCAACUCACUUGGAAGGAAAAAUAAAAAUCACAAAGGUAUAUUGUGGAAUUCUCGGGUGCCAA` — result for “RBNS enrichment (R)”: 0.341.
Under “RBNS enrichment (R)”, `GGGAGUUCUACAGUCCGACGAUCUGCUUCUUGCUGGGUUUUUGUACAUGUAAACAUUGUCAAGCUGUGAAAGAAAAUGGCUGGAGGUGUGCUUUGUGUGAAAGGUGAGCAAUAAAGUAUCUGUUAAGUUCUCUUGGAAUUCUCGGGUGCCAA` is recorded as 0.381.
`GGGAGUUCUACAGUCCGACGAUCAAAUUUUUAAAUCUCCAACUUGCUGUUUCCAAAAAGAAGGUGCAAUAUCAUAUAUCAUCAGUUAGCAAUAUUAGCAUUUCAAUCAGUGAUUUGAAUGUUGAUACUUUUUUUGGAAUUCUCGGGUGCCAA` — result for “RBNS enrichment (R)”: 0.721.
`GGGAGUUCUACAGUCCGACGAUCCUCCAGCGGUGGGGAAGCCGCUGAAUCCACCUGCUUCUCCUUUGCAACCGACAGCAAACAGCUUUCUCCGGCCUCAGGGCAGAAAAAGGGAAUGGCAGGGAGUAAGAGGCUGGAAUUCUCGGGUGCCAA` — result for “RBNS enrichment (R)”: 0.419.
